# Earlier results that unrelated publications cite.
# Protocols differ between the studies behind these lines. Values joined by “and” are separate records of one study, mostly repeats; a detail may differ. Numbers after ± are the reported error.
# ribH: 6,7-dimethyl-8-ribityllumazine synthase (ribH, Mycobacterium tuberculosis, UniProt P9WHE9)
# UniProt P9WHE9, sequence (whole entry, looked up): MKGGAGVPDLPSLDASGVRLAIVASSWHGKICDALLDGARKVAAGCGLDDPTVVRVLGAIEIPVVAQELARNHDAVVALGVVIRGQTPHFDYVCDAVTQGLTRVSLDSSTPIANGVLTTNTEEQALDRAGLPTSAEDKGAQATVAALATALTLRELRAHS
# CA12: Carbonic anhydrase 12 (CA12, Homo sapiens, UniProt O43570)
# UniProt O43570, sequence (whole entry, looked up): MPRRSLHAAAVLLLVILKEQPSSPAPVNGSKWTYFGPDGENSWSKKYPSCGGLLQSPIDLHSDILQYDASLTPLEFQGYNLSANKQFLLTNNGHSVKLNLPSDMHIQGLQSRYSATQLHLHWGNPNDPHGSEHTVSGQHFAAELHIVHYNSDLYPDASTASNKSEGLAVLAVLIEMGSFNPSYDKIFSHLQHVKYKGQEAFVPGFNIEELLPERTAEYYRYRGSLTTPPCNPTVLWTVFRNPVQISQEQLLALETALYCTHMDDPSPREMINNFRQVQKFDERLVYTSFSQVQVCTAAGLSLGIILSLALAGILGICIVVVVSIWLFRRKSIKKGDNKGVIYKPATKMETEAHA
# UniProt P04746, sequence (whole entry, looked up): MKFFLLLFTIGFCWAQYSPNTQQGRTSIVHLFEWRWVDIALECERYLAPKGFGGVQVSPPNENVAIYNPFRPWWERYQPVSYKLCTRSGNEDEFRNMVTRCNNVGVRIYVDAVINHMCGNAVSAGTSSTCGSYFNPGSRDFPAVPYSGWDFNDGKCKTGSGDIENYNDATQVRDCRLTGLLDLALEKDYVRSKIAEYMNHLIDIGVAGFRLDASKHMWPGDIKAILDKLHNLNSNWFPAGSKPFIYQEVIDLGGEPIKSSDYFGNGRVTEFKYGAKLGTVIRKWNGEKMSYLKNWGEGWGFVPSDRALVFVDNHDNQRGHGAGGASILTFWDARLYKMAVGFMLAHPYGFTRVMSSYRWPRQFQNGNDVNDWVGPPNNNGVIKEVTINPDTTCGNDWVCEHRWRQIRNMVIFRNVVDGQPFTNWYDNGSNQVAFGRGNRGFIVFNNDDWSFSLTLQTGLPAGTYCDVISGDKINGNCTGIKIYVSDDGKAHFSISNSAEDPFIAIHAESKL
# UniProt P21917, sequence (whole entry, looked up): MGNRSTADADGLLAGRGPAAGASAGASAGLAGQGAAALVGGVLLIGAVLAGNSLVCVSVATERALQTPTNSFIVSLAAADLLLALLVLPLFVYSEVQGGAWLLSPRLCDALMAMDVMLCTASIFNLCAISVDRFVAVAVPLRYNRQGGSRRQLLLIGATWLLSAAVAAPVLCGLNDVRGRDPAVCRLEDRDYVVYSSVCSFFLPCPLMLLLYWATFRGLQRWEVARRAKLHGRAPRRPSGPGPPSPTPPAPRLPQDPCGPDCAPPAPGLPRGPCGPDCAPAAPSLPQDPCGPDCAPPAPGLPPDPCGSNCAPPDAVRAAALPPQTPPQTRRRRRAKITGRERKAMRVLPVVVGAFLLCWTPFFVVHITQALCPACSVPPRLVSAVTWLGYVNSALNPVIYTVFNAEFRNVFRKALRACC
# UniProt Q16820, sequence (whole entry, looked up): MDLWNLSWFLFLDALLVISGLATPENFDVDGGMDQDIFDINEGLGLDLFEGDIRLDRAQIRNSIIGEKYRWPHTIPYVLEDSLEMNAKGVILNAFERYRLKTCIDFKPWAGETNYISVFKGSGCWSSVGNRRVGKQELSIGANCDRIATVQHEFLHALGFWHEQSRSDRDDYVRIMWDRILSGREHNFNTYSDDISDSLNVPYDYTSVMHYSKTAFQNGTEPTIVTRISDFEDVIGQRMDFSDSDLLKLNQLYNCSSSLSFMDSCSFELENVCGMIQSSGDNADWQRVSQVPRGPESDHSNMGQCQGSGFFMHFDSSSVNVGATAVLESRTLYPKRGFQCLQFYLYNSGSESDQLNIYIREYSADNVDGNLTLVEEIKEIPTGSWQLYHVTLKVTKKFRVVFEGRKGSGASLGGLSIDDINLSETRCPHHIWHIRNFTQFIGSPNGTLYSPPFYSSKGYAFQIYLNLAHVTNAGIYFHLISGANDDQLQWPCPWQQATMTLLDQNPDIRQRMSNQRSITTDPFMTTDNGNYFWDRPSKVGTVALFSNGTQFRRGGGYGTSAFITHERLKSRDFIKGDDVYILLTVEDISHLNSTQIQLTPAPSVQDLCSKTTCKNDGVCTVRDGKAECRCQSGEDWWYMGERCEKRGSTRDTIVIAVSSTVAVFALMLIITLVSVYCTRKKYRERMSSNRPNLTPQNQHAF
# UniProt Q9UUB1, sequence (whole entry, looked up): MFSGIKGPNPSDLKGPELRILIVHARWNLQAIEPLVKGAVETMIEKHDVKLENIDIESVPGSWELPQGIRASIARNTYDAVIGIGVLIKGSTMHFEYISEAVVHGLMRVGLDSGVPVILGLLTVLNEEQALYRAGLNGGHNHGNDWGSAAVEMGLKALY
# UniProt Q5U3Y7, sequence (whole entry, looked up): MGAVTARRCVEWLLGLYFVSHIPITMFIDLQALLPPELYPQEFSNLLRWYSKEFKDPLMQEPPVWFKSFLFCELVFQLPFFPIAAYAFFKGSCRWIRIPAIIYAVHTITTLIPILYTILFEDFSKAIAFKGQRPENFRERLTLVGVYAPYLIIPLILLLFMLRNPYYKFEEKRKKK
# UniProt P07686, sequence (whole entry, looked up): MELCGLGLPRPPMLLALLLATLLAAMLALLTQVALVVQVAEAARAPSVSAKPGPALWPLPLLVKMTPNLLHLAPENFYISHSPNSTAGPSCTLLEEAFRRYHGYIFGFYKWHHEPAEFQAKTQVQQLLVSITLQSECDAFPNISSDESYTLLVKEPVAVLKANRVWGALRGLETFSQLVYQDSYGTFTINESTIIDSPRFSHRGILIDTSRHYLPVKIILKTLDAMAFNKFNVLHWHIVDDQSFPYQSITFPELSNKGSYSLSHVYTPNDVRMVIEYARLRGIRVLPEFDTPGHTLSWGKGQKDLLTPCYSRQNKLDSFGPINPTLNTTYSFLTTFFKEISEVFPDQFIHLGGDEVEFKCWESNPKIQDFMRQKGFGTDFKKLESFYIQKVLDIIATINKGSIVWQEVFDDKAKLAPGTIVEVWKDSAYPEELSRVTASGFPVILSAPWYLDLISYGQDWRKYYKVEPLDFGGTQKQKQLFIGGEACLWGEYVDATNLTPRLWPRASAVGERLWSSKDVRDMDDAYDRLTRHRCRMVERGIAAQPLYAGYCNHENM
# UniProt Q9ZMY2, sequence (whole entry, looked up): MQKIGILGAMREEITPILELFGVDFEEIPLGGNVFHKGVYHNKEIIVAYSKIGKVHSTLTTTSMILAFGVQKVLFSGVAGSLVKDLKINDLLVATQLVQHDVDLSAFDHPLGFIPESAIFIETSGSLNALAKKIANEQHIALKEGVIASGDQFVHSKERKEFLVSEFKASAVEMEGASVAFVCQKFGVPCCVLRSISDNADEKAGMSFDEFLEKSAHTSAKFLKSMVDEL
Compound,tested on,assay,test system,conditions,quantity,result
CCCCOC(=O)NS(=O)(=O)c1sc(CC(C)C)cc1-c1cccc(CN(CC)C(C)=O)c1,"angiotensin II type 2 receptor, pig",,uterus membranes,,Ki,29 nM
OCCC1CCN(Cc2ccc(OCCCN3CCCCC3)cc2)CC1,histamine H3 receptor (human),binding,,,Ki,1 nM
CSCC[C@H](NC=O)C(=O)N[C@@H](CC(C)C)C(=O)N[C@@H](Cc1ccccc1)C(=O)O,human polymorphonuclear leukocytes,binding,,,Kd,10 to 15 nM
CC(C)C(=O)Nc1c(NC[C@H](O)[C@H](O)[C@H](O)CO)[nH]c(=O)[nH]c1=O,"6,7-dimethyl-8-ribityllumazine synthase (rib4, Schizosaccharomyces pombe, UniProt Q9UUB1)",inhibitor,,pH 7.0,Ki,7900 ± 800 nM
COc1cc2c(cc1OC)CN(CCCCn1ccc3c(OCCF)cccc31)CC2,"Tmem97 (Rattus norvegicus, UniProt Q5U3Y7)",binding,,,Ki,2.4 ± 0.58 nM
O=c1[nH]cnc2c(CNC(CO)COP(=O)(O)O)c[nH]c12 (racemic),Trypanosoma cruzi HGPRT,inhibitor,,,Ki,1100 ± 200 nM
COCCOc1cc2ncnc(Nc3cccc(-c4cn(Cc5ccc(C(=O)NCCc6ccc(S(N)(=O)=O)cc6)cc5)nn4)c3)c2cc1OCCOC,Helicobacter pylori alpha-carbonic anhydrase,"inhibitor, stopped-flow CO2 hydration",,,Ki,805 nM
C=CC(=O)N1CCC[C@@H](n2nc(-c3ccc4ccccc4c3)c3c(N)ncnc32)C1,"EGFR (Homo sapiens, UniProt P00533)",,,,Ki,15 ± 3.2 nM
COc1ccc(CNCCN2C(=O)c3cccc4cccc(c34)C2=O)cc1,"HEXB (Homo sapiens, UniProt P07686)",,,,Ki,630 nM
COCCOc1cc2ncnc(Nc3cccc(-c4cn(-c5ccc(S(N)(=O)=O)cc5)nn4)c3)c2cc1OCCOC,Helicobacter pylori alpha-carbonic anhydrase,"inhibitor, stopped-flow CO2 hydration",,,Ki,63.3 nM
N=C(N)NCCC[C@@H](NC(=O)C(c1ccccc1)c1ccccc1)C(=O)NCc1ccc(O)cc1,NPFF1R,binding,,,Ki,18 nM
O=c1[nH]c(SC[C@H](O)[C@H](O)[C@H](O)CO)c([N+](=O)[O-])c(=O)[nH]1,ribH,inhibitor,,pH 7.0,Ki,11000 ± 2000 nM
CCCCSC[C@H]1CN(Cc2c[nH]c3c(N)ncnc23)C[C@@H]1O,"Aminodeoxyfutalosine nucleosidase (Helicobacter pylori, UniProt Q9ZMY2)",inhibitor,,,Ki,0.036 nM
CN1CCC(n2nc(-c3c(-c4ccccc4)nn4ccccc34)ccc2=O)CC1,adenosine A1 receptor (human),,,,Ki,2.9 nM
CCc1c(Cl)cccc1N1CCN(C[C@H](F)CCNC(=O)c2cc3ccccc3[nH]2)CC1,dopamine D3 receptor,binding,,,Ki,0.37 ± 0.06 nM
C/C(=N\NC(=O)CSc1nc2ccccc2c(=O)n1CCc1ccc(S(N)(=O)=O)cc1)c1ccccc1,"CA2 (Homo sapiens, UniProt P00918)","enzyme activity, inhibitor",,,Ki,67.5 nM
O=c1[nH]c(O)nc2c([C@@H]3N[C@H](COP(=O)(O)O)[C@@H](O)[C@H]3O)c[nH]c12,Plasmodium falciparum HGXPRT,inhibitor,,,Ki,> 100000 nM
C[C@H](NC(=O)CC[C@H](N)C(=O)O)C(=O)NCP(=O)(O)CCCCNCCCCN,"Trypanothione synthetase (Trypanosoma brucei, UniProt Q586P2)",,,,Ki,500 to 1200 nM
COc1cc(C(=O)O)ccc1Cc1cn(C)c2ccc(NC(=O)OC3CCCC3)cc12,CysLT1 receptor,,,,Ki,157 nM
CCC1=C(O)c2c(oc(-c3cc4ccccc4s3)cc2=O)C(CC)(CC)C1=O,MCF7,"cell growth, SRB",,,IC50,15.2 µM
NS(=O)(=O)c1ccc(CCn2c(SCC(=O)N/N=C/c3ccccc3)nc3ccccc3c2=O)cc1,"CA9 (Homo sapiens, UniProt Q16790)",,,,Ki,61.7 nM
CSc1nc(N)c2ncn([C@H]3[C@H](O)[C@H](O)[C@]4(COP(=O)(O)OP(=O)(O)O)C[C@H]34)c2n1,P2Y1 receptor,,,,Ki,0.4 nM
CN1C(=O)[C@@H](Cc2ccc(O)cc2)NC(=O)CNC(=O)[C@H](Cc2ccc3ccccc3c2)NC(=O)[C@H](CCCNC(=N)N)NC(=O)[C@H]1CCCNC(=O)c1ccc(CNC(=O)CN2CCN(CC(=O)O)CCN(CC(=O)O)CCN(CC(=O)O)CC2)cc1 [gallium-68 labelled],,image-based dosimetry,"human patients, red marrow",,absorbed dose coefficient,0.014 mGy/MBq
CC(C)(O/N=C(\C(=O)NCB(O)O)c1csc(N)n1)C(=O)O,ADC-7 beta-lactamase,inhibitor,,,Ki,310 nM
COCCOc1cc2ncnc(Nc3cccc(-c4cn(Cc5ccc(S(N)(=O)=O)cc5)nn4)c3)c2cc1OCCOC,Helicobacter pylori alpha-carbonic anhydrase,"inhibitor, stopped-flow CO2 hydration",,,Ki,19.3 nM
Nc1nc2c(CNCCCP(=O)(O)O)c[nH]c2c(=O)[nH]1,Trypanosoma cruzi HGPRT,inhibitor,,,Ki,3600 ± 300 nM
COc1cc2c(cc1OC)[C@@H]1C[C@H](O)[C@@H](CC(C)C)CN1CC2,5-HT7 receptor,binding,,,Ki,23 ng/mL
C[C@@H]1O[C@@H](O[C@@H]2CO[C@@H](Oc3c(O)cc(-c4oc5cc(O)cc(O)c5c(=O)c4O[C@@H]4O[C@@H](C)[C@H](O)[C@@H](O)[C@H]4O[C@@H]4O[C@H](COC(=O)/C=C/c5ccc(O)c(O)c5)[C@@H](O)[C@H](O)[C@H]4O[C@@H]4O[C@H](CO)[C@@H](O)[C@H](O)[C@H]4O)cc3O)[C@H](O)[C@H]2O)[C@H](O)[C@H](O)[C@H]1O,"Pancreatic alpha-amylase (Homo sapiens, UniProt P04746)",,,,Ki,8 nM
Nc1ccc(-c2ccc3ccccc3n2)cc1,amyloid beta fibrils,binding,,,Ki,> 5000 nM
NS(=O)(=O)c1ccc(CCn2c(S)nc3ccccc3c2=O)cc1,"carbonic anhydrase II, human",,,,Ki,0.62 nM
COCCOCCOCCOCCC(=O)NCc1cc(CNC(=O)CCOCCOCCOCCOC)cc(-c2cc3cc4nc(c(OC)c5[nH]c(cc6nc(cc2[nH]3)CC6(C)C)cc5-c2cc(CNC(=O)CCOCCOCCOCCOC)cc(CNC(=O)CCOCCOCCOCCOC)c2)CC4(C)C)c1,,,PBS,room temperature,intersystem crossing yield,0.4
CCC1=C(O)c2c(oc(-c3ccc4ccccc4c3)cc2=O)C(CC)(CC)C1=O,MCF7,"cell growth, SRB",,,IC50,1.42 µM
COC(=O)NC(C(=O)NN(Cc1ccc(Br)cc1)CC(O)(Cc1ccccc1)C(=O)NCc1ccccc1)C(C)(C)C (stereo not drawn),"Gag-Pol polyprotein, protease (gag-pol, Human immunodeficiency virus type 1 group M subtype B, UniProt P04585)",inhibitor,,,Ki,88 nM
OCCNC(CO)CO,yeast alpha-glucosidase,,,,Ki,4000 nM and 4000 to 10000 nM
C=CCC(=N)NCCC[C@H](N)C(=O)O,mouse iNOS,,,,Ki,60000 nM
Cc1ccccc1-c1cc(N2CCNCC2)ncc1N(C)C(=O)C(C)(C)c1cc(C(F)(F)F)cc(C(F)(F)F)c1,,,"healthy volunteers, plasma","oral, 450 mg, single dose, netupitant alone",Cmax,60.7 ng/mL
COc1cc2nc(SC(C)C(=O)NCCc3ccc(S(N)(=O)=O)cc3)n(Cc3ccccc3)c(=O)c2cc1OC (stereo not drawn),"carbonic anhydrase IX, human",,,,Ki,16.4 to 24.2 nM
COc1ccccc1N1CCN(CC(O)CCNC(=O)c2ccc(-c3ccccn3)cc2)CC1 (stereo not drawn),"DRD4 (Homo sapiens, UniProt P21917)",,,,Ki,4470 ± 993 nM
O=c1[nH]cnc2c(CNCCCP(=O)(O)O)c[nH]c12,Plasmodium falciparum HGXPRT,inhibitor,,,Ki,60 ± 3 nM
CCOC(=O)C(=O)Nc1c(NC[C@H](O)[C@H](O)[C@H](O)CO)[nH]c(=O)[nH]c1=O,ribH,inhibitor,,pH 7.0,Ki,4000 ± 1700 nM
O=C(O)/C(S)=C/c1c[nH]c2ccc(F)cc12,µ-calpain,,,,Ki,260 nM
Nc1nc2c([C@@H]3N[C@H](COP(=O)(O)O)[C@@H](O)[C@H]3O)c[nH]c2c(=O)[nH]1,Plasmodium falciparum HGXPRT,inhibitor,,,Ki,14 ± 2 nM
"O=C(c1ccc(F)cc1)C1CCN(C2Cc3c(cccc3OCCF)CC2O)CC1 (single isomer, unassigned; (-))",sigma-2 receptor,binding,,,Ki,> 10000 nM
C=CC(=O)N1CCC[C@@H](n2nc(-c3cccc4ccccc34)c3c(N)ncnc32)C1,"EGFR (Homo sapiens, UniProt P00533, L858R/T790M)",,,,Ki,58 ± 3.3 nM
NS(=O)(=O)c1c(F)c(F)c(SCCc2ccccc2)c(F)c1N1CCOCC1,CA12,fluorescent thermal shift,,"pH 7.0, 37 °C, observed",Kd,100000 nM
O=C(CCN(Cc1ccccc1)Cc1ccccc1)NO,"MEP1B (Homo sapiens, UniProt Q16820)","enzyme activity, inhibitor",,,Ki,74400 nM
NS(=O)(=O)c1c(F)c(NCCc2ccc(O)cc2)c(SCCO)c(NC2CCCCCCCCCCC2)c1F,CA12,fluorescent thermal shift,,"pH 7.0, 37 °C, observed",Kd,500 nM
COc1ccc2nc3cc(Cl)ccc3c(NCCCCNc3nc(N)nc(N)n3)c2c1,RNA repeat r(CUG)2,binding,,,Kd,2100 nM

# Excerpt of the above:
Compound,tested on,assay,test system,conditions,quantity,result
NS(=O)(=O)c1ccc(CCn2c(S)nc3ccccc3c2=O)cc1,"carbonic anhydrase II, human",,,,Ki,0.62 nM
COCCOCCOCCOCCC(=O)NCc1cc(CNC(=O)CCOCCOCCOCCOC)cc(-c2cc3cc4nc(c(OC)c5[nH]c(cc6nc(cc2[nH]3)CC6(C)C)cc5-c2cc(CNC(=O)CCOCCOCCOCCOC)cc(CNC(=O)CCOCCOCCOCCOC)c2)CC4(C)C)c1,,,PBS,room temperature,intersystem crossing yield,0.4
CCC1=C(O)c2c(oc(-c3ccc4ccccc4c3)cc2=O)C(CC)(CC)C1=O,MCF7,"cell growth, SRB",,,IC50,1.42 µM
COC(=O)NC(C(=O)NN(Cc1ccc(Br)cc1)CC(O)(Cc1ccccc1)C(=O)NCc1ccccc1)C(C)(C)C (stereo not drawn),"Gag-Pol polyprotein, protease (gag-pol, Human immunodeficiency virus type 1 group M subtype B, UniProt P04585)",inhibitor,,,Ki,88 nM
OCCNC(CO)CO,yeast alpha-glucosidase,,,,Ki,4000 nM and 4000 to 10000 nM
C=CCC(=N)NCCC[C@H](N)C(=O)O,mouse iNOS,,,,Ki,60000 nM
